# Assay results pooled from the literature.
# Protocols differ between the studies behind these lines. Values joined by “and” are separate records of one study, mostly repeats; a detail may differ. ± marks the error that the study gave.
SMILES,tested on,test,system,setting,how to read,measurement,result
CCC(=O)N[C@@H](C)C(=O)OCC(=O)N[C@@H](C)C(=O)O,,,water,"pH 8, 50 °C",,chain scission rate constant,0.202 h⁻¹
COc1cc2c(NC3CCN(C(C)C)CC3)cc(N3CCOCC3)nc2cc1OCCCN1CCCC1,,"TMT quantitative proteomics, refers to: GOT1 (cytoplasmic)","FAD AD model mice, hippocampus",dose not given,,normalised protein abundance,-0.0802 and -0.0694 and -0.0795 and -0.0878 and -0.0669 and -0.0671 and -0.0719 and -0.0871
COC1OC(C)C(O)C(OC2OC(C)C(O)C(OS(=O)(=O)O)C2OS(=O)(=O)O)C1OS(=O)(=O)O (centres unmarked),,,human plasma,128 µg/mL,,thrombin time,10.6 ± 0.5 s
Cc1[nH]nc2c1N=C(c1ccccc1Cl)c1cnc(N3CCOCC3)cc1N2,,,mouse sample I TNBC PDX,"oral, 15 mg/kg, 120 h, 5 days per week",,tumour growth inhibition,94%
Nc1nc2cc(CC[C@H]3C[C@@H](n4ccc5c(N)ncnc54)[C@H](O)[C@@H]3O)ccc2cc1Br,,,"NCI-H1048 xenograft, mouse","10.0 mg/kg/day, day 28",,tumour volume,32 ± 11 mm3
O=C(N[C@@H](Cc1coc2ccccc12)B(O)O)[C@@H]1C[C@H]2CC[C@@H]1O2,,tumour growth,"MM1.S, mouse, MM1.S multiple myeloma xenograft","oral, 10 mg/kg twice weekly",,T/C,-13%
COC1CN([C@H]2CC[C@H]([C@@]3(C)Oc4c(Cl)cc(C(=O)NCc5c(SC)cc(C)[nH]c5=O)c(C)c4O3)CC2)C1,,"RNA-seq, refers to: RASL10A","human, whole blood","dose not given, 24 h",reference: pretreatment baseline,log2 fold change,1.67
COC1OC(C)C(OS(=O)(=O)O)C(OC2OC(C)C(OS(=O)(=O)O)C(OC3OC(C)C(OS(=O)(=O)O)C(OC4OC(C)C(OS(=O)(=O)O)C(OC5OC(C)C(OS(=O)(=O)O)C(OC6OC(C)C(OS(=O)(=O)O)C(OS(=O)(=O)O)C6OS(=O)(=O)O)C5OS(=O)(=O)O)C4OS(=O)(=O)O)C3OS(=O)(=O)O)C2OS(=O)(=O)O)C1OS(=O)(=O)O (centres unmarked),,,human plasma,128 µg/mL,reference: control,thrombin time prolongation,1 fold
CN1CCC[C@]1(C)/C=C/S(=O)(=O)NC(=O)Nc1c2c(cc3c1CCC3)CCC2,,,"human, whole blood ex vivo","12.5 mg twice daily, day 14, 12 h, multiple ascending dose, with: LPS and ATP",,IL-1β inhibition,95.7%
O=C(N[C@@H](Cc1ccc(OCCCCC2CCNCC2)cc1)C(=O)O)c1nc2ccccc2o1.O=C(O)C(F)(F)F,,"platelet aggregation, inhibitor, impedance aggregometry","human, whole blood, 1:1 saline","3000 nM, 6 min, 37 °C, with: ADP 20 µM",higher = more aggregation,aggregation impedance AUC,0 a.u.
COC1OC(C)C(OC2OC(C)C(OS(=O)(=O)O)C(OC3OC(C)C(OC4OC(C)C(OS(=O)(=O)O)C(OC5OC(C)C(OC6OC(C)C(OS(=O)(=O)O)C(OC7OC(C)C(OC8OC(C)C(OS(=O)(=O)O)C(OC9OC(C)C(OC%10OC(C)C(OS(=O)(=O)O)C(OC%11OC(C)C(OC%12OC(C)C(OS(=O)(=O)O)C(OS(=O)(=O)O)C%12O)C(OS(=O)(=O)O)C%11O)C%10O)C(OS(=O)(=O)O)C9O)C8O)C(OS(=O)(=O)O)C7O)C6O)C(OS(=O)(=O)O)C5O)C4O)C(OS(=O)(=O)O)C3O)C2O)C(OS(=O)(=O)O)C1O (centres unmarked),,,human plasma,128 µg/mL,reference: control,thrombin time prolongation,1 fold
Cc1ncsc1-c1ccc(C(C)NC(=O)C2CC(O)CN2C(=O)C(NC(=O)CCCCCCCCCCN2CCCC(Nc3ncc(Cl)c(Nc4ccccc4S(=O)(=O)C(C)C)n3)C2)C(C)(C)C)cc1 (centres unmarked),22Rv1,"RNA-seq, refers to: RFXAP mRNA",,concentration not given,reference: DMSO,log2 fold change,-1.05
COC1OC(C)C(OS(=O)(=O)O)C(OC2OC(C)C(OS(=O)(=O)O)C(OC3OC(C)C(OS(=O)(=O)O)C(OC4OC(C)C(OS(=O)(=O)O)C(OC5OC(C)C(OS(=O)(=O)O)C(OC6OC(C)C(OS(=O)(=O)O)C(OC7OC(C)C(OS(=O)(=O)O)C(OC8OC(C)C(OS(=O)(=O)O)C(OC9OC(C)C(OS(=O)(=O)O)C(OC%10OC(C)C(OS(=O)(=O)O)C(OC%11OC(C)C(OS(=O)(=O)O)C(OS(=O)(=O)O)C%11O)C%10O)C9O)C8O)C7O)C6O)C5O)C4O)C3O)C2O)C1O (centres unmarked),,,human plasma,128 µg/mL,reference: control,thrombin time prolongation,1 fold
COc1cc(O)ccc1CCC(c1ccc(O)cc1)c1cc2c(c(C)c1O)OC(c1ccc(O)cc1)CC2 (mixture of isomers),,,human blood,"3 µM, with: A23187",,5-HETE level,2520 ± 613 pg/mL
COC1OC(C)C(OC2OC(C)C(O)C(OC3OC(C)C(OC4OC(C)C(O)C(OC5OC(C)C(OC6OC(C)C(O)C(OC7OC(C)C(OC8OC(C)C(O)C(OC9OC(C)C(OC%10OC(C)C(O)C(OC%11OC(C)C(O)C(OS(=O)(=O)O)C%11OS(=O)(=O)O)C%10OS(=O)(=O)O)C(OS(=O)(=O)O)C9OS(=O)(=O)O)C8OS(=O)(=O)O)C(OS(=O)(=O)O)C7OS(=O)(=O)O)C6OS(=O)(=O)O)C(OS(=O)(=O)O)C5OS(=O)(=O)O)C4OS(=O)(=O)O)C(OS(=O)(=O)O)C3OS(=O)(=O)O)C2OS(=O)(=O)O)C(OS(=O)(=O)O)C1OS(=O)(=O)O (centres unmarked),,,human plasma,128 µg/mL,reference: control,thrombin time prolongation,0.9 fold
COc1ccc(C(=O)CCc2cc(C(CCc3ccc(O)cc3OC)c3ccc(O)cc3)c(O)cc2OC)cc1 (racemic),,,human blood,"1 µM, with: A23187",,PGE2 level,39 ± 8 pg/mL
Cc1ccc(N(O)/N=N/c2ccc(S(=O)(=O)Nc3nccs3)cc2)cc1,,"DPPH scavenging, absorbance",,300 µg/mL,,inhibition,33.2%

# A few entries again:
SMILES,tested on,test,system,setting,how to read,measurement,result
COC1CN([C@H]2CC[C@H]([C@@]3(C)Oc4c(Cl)cc(C(=O)NCc5c(SC)cc(C)[nH]c5=O)c(C)c4O3)CC2)C1,,"RNA-seq, refers to: RASL10A","human, whole blood","dose not given, 24 h",reference: pretreatment baseline,log2 fold change,1.67
COC1OC(C)C(OC2OC(C)C(O)C(OC3OC(C)C(OC4OC(C)C(O)C(OC5OC(C)C(OC6OC(C)C(O)C(OC7OC(C)C(OC8OC(C)C(O)C(OC9OC(C)C(OC%10OC(C)C(O)C(OC%11OC(C)C(O)C(OS(=O)(=O)O)C%11OS(=O)(=O)O)C%10OS(=O)(=O)O)C(OS(=O)(=O)O)C9OS(=O)(=O)O)C8OS(=O)(=O)O)C(OS(=O)(=O)O)C7OS(=O)(=O)O)C6OS(=O)(=O)O)C(OS(=O)(=O)O)C5OS(=O)(=O)O)C4OS(=O)(=O)O)C(OS(=O)(=O)O)C3OS(=O)(=O)O)C2OS(=O)(=O)O)C(OS(=O)(=O)O)C1OS(=O)(=O)O (centres unmarked),,,human plasma,128 µg/mL,reference: control,thrombin time prolongation,0.9 fold
